Measured values gathered from unrelated publications.
Compare with care: the assays were run in different laboratories. “And” joins repeats or separate records; there may be more than shown. ± gives the spread as reported.
lasR: Transcriptional activator protein LasR (lasR, Pseudomonas aeruginosa, UniProt P25084)
Oprm1: Mu-type opioid receptor (Oprm1, Rattus norvegicus, UniProt P33535)
Sequence of UniProt P33535 (whole entry, looked up): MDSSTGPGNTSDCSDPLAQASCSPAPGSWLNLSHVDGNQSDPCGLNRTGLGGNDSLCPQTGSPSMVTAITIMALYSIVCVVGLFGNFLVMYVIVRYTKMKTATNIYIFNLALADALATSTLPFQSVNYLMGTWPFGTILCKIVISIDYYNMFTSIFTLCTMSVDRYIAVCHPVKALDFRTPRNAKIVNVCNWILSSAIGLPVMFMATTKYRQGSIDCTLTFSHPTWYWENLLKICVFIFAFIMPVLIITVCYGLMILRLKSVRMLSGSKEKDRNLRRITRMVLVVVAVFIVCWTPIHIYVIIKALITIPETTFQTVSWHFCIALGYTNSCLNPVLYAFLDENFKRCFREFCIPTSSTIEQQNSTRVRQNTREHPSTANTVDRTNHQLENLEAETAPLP
sdiA: Regulatory protein SdiA (sdiA, Escherichia coli, UniProt P07026)
Sequence of UniProt P07026 (whole entry, looked up): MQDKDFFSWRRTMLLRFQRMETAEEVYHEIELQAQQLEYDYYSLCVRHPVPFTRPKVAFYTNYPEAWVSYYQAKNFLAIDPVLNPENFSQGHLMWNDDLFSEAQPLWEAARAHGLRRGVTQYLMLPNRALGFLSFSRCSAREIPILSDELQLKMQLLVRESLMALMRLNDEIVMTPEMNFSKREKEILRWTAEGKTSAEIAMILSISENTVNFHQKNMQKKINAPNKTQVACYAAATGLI
Uncharacterized hydrolase SAUSA300_2518: Uncharacterized hydrolase SAUSA300_2518 (Staphylococcus aureus, UniProt Q2FDS6)
Sequence of UniProt Q9UM07 (whole entry, looked up): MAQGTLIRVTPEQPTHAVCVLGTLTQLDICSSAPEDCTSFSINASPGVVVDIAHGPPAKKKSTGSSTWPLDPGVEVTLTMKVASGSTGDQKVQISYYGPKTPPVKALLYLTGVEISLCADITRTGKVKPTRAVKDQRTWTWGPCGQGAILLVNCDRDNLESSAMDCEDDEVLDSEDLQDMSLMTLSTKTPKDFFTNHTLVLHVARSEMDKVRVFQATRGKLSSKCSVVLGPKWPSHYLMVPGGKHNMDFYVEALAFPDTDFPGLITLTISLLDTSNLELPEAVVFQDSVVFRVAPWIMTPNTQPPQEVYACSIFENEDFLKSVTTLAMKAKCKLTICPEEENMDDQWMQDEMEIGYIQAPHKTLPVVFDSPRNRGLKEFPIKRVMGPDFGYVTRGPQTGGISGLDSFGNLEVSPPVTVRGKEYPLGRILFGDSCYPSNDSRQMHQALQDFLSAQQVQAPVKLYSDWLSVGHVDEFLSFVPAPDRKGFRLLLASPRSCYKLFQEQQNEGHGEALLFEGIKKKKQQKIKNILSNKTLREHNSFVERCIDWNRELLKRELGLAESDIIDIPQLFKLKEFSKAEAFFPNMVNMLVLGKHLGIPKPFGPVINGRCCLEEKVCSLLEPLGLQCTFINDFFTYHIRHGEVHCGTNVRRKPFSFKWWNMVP
Sequence of UniProt Q14145 (whole entry, looked up): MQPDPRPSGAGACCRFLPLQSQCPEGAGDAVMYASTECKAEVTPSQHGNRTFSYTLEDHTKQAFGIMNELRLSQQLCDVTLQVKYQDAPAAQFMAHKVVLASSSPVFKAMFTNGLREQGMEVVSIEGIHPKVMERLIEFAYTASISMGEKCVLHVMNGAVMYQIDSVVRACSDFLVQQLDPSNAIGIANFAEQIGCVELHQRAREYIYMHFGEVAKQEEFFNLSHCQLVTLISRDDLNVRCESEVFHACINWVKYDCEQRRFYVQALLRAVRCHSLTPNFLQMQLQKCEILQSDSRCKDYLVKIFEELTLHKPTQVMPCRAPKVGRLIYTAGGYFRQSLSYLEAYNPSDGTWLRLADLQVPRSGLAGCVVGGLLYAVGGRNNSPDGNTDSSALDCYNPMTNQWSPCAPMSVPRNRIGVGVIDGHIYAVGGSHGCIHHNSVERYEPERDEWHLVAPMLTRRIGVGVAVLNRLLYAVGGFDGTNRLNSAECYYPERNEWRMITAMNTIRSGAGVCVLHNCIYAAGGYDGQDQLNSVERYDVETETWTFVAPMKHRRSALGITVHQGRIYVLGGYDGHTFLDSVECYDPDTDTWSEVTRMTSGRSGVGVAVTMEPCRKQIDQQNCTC
Sequence of UniProt P21396 (whole entry, looked up): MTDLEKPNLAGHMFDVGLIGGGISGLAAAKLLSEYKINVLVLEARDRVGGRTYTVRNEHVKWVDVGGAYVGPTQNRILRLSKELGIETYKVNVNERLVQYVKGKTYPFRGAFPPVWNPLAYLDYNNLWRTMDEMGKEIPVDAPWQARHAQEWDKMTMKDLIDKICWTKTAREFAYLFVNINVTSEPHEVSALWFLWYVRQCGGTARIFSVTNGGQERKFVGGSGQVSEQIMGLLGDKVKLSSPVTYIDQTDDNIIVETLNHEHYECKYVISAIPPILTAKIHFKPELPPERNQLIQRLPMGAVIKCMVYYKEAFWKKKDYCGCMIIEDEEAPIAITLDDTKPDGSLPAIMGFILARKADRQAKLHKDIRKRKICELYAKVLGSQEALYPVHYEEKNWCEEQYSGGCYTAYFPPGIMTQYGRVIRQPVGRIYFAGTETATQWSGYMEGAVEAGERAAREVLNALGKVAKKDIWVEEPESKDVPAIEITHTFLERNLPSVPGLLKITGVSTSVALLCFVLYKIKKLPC
Sequence of UniProt Q9UH17 (whole entry, looked up): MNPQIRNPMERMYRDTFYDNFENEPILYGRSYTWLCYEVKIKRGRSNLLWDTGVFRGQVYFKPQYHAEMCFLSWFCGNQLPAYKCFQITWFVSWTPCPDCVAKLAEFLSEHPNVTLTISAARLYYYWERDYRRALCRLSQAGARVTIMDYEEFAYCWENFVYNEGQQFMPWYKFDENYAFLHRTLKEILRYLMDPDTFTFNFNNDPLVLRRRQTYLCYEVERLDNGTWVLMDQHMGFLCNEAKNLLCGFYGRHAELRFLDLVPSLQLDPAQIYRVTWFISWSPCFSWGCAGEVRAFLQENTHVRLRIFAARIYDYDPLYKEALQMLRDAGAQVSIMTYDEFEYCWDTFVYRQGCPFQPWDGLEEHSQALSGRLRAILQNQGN
Sequence of UniProt Q8WTQ7 (whole entry, looked up): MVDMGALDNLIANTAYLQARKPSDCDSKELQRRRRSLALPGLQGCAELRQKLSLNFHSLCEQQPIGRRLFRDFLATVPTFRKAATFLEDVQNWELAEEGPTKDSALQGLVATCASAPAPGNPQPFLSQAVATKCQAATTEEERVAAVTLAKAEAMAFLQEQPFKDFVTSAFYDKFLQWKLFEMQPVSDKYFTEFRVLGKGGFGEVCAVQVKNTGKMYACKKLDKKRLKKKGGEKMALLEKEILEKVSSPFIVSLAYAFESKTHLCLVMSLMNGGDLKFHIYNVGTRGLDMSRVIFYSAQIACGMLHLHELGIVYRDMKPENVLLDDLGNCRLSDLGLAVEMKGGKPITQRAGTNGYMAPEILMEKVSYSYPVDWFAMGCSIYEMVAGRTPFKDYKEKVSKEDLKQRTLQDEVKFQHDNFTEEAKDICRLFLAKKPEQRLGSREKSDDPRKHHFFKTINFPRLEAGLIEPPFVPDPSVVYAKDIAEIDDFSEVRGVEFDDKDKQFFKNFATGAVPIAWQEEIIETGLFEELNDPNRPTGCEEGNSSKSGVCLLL
Sequence of UniProt O60674 (whole entry, looked up): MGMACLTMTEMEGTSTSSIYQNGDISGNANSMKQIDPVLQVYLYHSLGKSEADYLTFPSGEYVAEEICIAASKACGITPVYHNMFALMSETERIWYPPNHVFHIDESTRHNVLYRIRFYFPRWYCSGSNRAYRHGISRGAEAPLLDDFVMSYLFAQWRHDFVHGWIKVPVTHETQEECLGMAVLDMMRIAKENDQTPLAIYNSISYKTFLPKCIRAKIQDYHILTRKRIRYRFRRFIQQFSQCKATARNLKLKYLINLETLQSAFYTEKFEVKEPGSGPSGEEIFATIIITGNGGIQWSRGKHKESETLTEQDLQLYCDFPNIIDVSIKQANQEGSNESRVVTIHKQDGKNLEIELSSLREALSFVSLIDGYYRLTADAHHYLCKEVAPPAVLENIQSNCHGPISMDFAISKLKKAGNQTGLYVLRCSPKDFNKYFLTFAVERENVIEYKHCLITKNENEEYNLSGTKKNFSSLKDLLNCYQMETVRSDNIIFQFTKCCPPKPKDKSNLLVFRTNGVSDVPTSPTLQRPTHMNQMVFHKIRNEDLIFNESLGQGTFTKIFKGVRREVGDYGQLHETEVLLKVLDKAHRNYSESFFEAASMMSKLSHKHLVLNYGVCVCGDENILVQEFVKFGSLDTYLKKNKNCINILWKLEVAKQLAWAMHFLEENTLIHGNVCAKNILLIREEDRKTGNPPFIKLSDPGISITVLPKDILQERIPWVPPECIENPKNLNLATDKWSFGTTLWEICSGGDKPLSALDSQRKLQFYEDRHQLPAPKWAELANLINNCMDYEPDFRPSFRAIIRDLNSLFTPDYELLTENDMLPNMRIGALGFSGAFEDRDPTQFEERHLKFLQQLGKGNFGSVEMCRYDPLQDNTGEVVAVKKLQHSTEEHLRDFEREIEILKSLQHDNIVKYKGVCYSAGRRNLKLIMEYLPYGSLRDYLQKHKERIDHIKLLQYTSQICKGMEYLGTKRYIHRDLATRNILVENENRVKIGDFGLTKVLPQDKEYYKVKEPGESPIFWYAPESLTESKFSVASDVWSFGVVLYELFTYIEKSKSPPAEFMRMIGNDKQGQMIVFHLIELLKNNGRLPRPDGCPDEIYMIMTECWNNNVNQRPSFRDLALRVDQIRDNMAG
Sequence of UniProt P0A988 (whole entry, unmodified, looked up): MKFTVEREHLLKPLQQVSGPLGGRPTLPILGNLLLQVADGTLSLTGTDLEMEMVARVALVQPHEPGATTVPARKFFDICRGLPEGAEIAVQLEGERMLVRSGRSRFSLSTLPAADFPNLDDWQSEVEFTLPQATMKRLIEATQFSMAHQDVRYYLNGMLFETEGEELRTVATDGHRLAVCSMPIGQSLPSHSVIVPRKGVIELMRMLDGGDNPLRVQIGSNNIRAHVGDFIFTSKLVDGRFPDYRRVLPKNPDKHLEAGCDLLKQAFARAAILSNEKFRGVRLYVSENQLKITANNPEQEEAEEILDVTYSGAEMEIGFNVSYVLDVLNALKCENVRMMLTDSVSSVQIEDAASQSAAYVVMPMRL

`O=C(CCCOc1ccc(Cl)cc1)N[C@H]1CCOC1=O` gave an agonist activity of 11% (lasR; reporter gene, agonist; Escherichia coli JLD271; 10 µM, pSC11 and pJN105L plasmids; reference: OdDHL at same concentration).
`O=C(O)c1ccc(-c2nc(-c3ccccc3Cl)c3sccn23)cc1` gave a specific binding of 93% and 97% (Maoa (Rattus norvegicus, UniProt P21396); radioligand binding, safety screen panel; 10 µM; reference: control).
With `CC[C@H](C)[C@H](NC(=O)[C@H](CCCNC(=N)N)NC(=O)[C@H](CCCNC(=N)N)NC(=O)[C@H](CC(C)C)NC(=O)[C@H](Cc1ccccc1)NC(=O)CNC(=O)CNC(=O)[C@@H](N)Cc1ccc(O)cc1)C(=O)N[C@@H](CCCNC(=N)N)C(=O)N1CCC[C@H]1C(=O)N[C@@H](CCCCN)C(=O)N[C@@H](CC(C)C)C(=O)N[C@@H](CCCCN)C(=O)O` the Emax was 11.1% (GPR139 (Homo sapiens, UniProt Q6DWJ6); Gαz activation, agonist, BRET; HEK293T/17; 40 µM).
The Hill slope of `CC(C)C[C@H](NC(=O)[C@H]1O[C@@H]1C(=O)O)C(=O)NCCCCN=C(N)N` is reported as -1.41 (Cathepsin L2 (CTSV, Homo sapiens, UniProt O60911)).
`CC(C)[C@H]1NC(=O)C[C@H]2/C=C/CCSSC[C@@H](NC1=O)C(=O)N[C@H](Cc1cccc3ccccc13)C(=O)NCC(=O)O2` gave an inhibition of -4.8% (Aurora kinase B (AURKB, Homo sapiens, UniProt Q96GD4); enzyme activity, inhibitor; 10 µM).
For `CCCC[C@H]1CNCCN1C[C@@H]1CCCN1C[C@@H](Cc1ccc2ccccc2c1)N1CCN(CCc2ccc(Cl)c(Cl)c2)[C@H]([C@@H](C)O)C1`, the remaining binding was 104 ± 8.28% (Oprm1; radioligand binding; rat brain membranes; 500 nM, pH 7.5, 25 °C, together with: 0.87 nM [3H]DAMGO).
`CN(/N=C/c1ccccc1C(=O)O)c1nc(-c2ccccc2Cl)cs1` has an inhibition of 0.19% (JAK2 (Homo sapiens, UniProt O60674); kinase activity; 1 µM, mean).
`C#CCCCCOc1ccc2c(c1)CCCN2C(=O)CCl` gave a reactivity ratio of 1.53 (CAAX prenyl protease 2 (Homo sapiens, UniProt Q9Y256); mass spectrometry profiling, refers to: RCE1; H460 cell lysate; 100 µM over 10 µM, UniProt Q9Y256; reference: high over low concentration).
With `O=C1NC(=O)c2c1c1cc(F)c[n+]3c1c1c2c2cc(O)ccc2[n]1[Ru-4]312([N]=C=S)[S+]3CC[S+]1CC[S+]2CC3` (stereo not drawn) the remaining activity was 39% (GRK7 (Homo sapiens, UniProt Q8WTQ7); enzyme activity; 100 nM, human enzyme, together with: 10 µM ATP; reference: untreated).
`C=CC(=O)Nc1cc(-c2ccc(C(=O)N3CCCC(O)(CC)C3)cc2)ccc1F` (stereo not drawn) gave an adducted protein of 26% and 20% (DNA dC->dU-editing enzyme APOBEC-3B, C-terminal domain (Homo sapiens, UniProt Q9UH17); covalent adduct, intact protein MS; 1 h, 10-fold excess, 250 µM).
For `CN(C)[C@H]1C[C@@]23CC[C@@]4(O2)C(=CC[C@]2(C)[C@@H](c5ccc6ccncc6c5)CC[C@H]24)C=C3[C@@H](O)[C@@H]1O`, the inhibition was -3.2% (CDK14 (Homo sapiens, UniProt O94921); ATP probe labelling, inhibitor, KiNativ profiling; 1 µM).
For `O=C(Cc1ccccc1)N[C@H]1CCSC1=O`, the Emax was 89.4% (sdiA).
The MST response of `CN(C)CCCSC(=S)N1CCN(C(=O)/C=C/c2coc3ccccc3c2=O)CC1` is reported as 854 a.u. (Nucleoprotein (N, Tomato spotted wilt virus, UniProt P25999, Y184A); binding, microscale thermophoresis; 500 µM; dose series).
For `N[C@H](C(=O)N1CCCC1)C1CCN(c2nccc3c(-c4ncc(Cl)cc4Cl)cccc23)CC1`, the kcat was 0.699 s⁻¹ and 0.667 s⁻¹ (PADI4 (Homo sapiens, UniProt Q9UM07); enzyme activity; 1.536 µM, high-affinity site, together with: Ca2+ 1.5 mM).
For `CC(C)CC(O)(CC(C)C)c1cn(C(=O)N2CCCC2)nn1`, “ratio of ratios” read 1.5 (Lysosomal Pro-X carboxypeptidase (Mus musculus, UniProt Q7TMR0); enzyme activity, inhibitor, refers to: Prcp; mouse, brain; i.p., 0.8 mg/kg, 4 h, protein level; reference: vehicle).
`O=C(CCc1ccc(C(F)(F)F)cc1)N[C@H]1CCOC1=O` gave an agonist activity of 36% (lasR; reporter gene, agonist; Pseudomonas aeruginosa PAO-JP2; 100 µM, plasI-LVAgfp reporter; reference: OdDHL at same concentration).
With `COc1ccccc1-c1n[nH]c2nc(N[C@H]3CC[C@H](NS(=O)(=O)CC(C)C)CC3)ncc12` the Hill slope was 2.5 (cdc2-related kinase 12 (Leishmania donovani, UniProt A0A3S7WQK2); affinity bead binding, bead competition pull-down; Leishmania donovani extract; analogue affinity beads).
For `C[C@@H](O)[C@@H]1CN([C@@H](CC2CCCCC2)CN2CCC[C@H]2CN2CCNC[C@@H]2Cc2ccc3ccccc3c2)CCN1CCc1ccc(Cl)c(Cl)c1`, the remaining binding was 103 ± 3.6% (Oprm1; radioligand binding; rat brain membranes; 500 nM, pH 7.5, 25 °C, together with: 0.87 nM [3H]DAMGO).
`CN1CCCN(C(=O)c2ccc(S(=O)(=O)F)cc2)c2ccccc21` gave a remaining activity of 110% and 109% (Uncharacterized hydrolase SAUSA300_2518; enzyme activity, inhibitor, fluorogenic substrate; 0.05 µM).
`O=C(CCCCCCCCCN=C=S)CC(=O)N[C@H]1CCOC1=O` gave a potency ratio of 150 (lasR; reporter gene, agonist; reference: EC50 PAO-JP2 over E. coli JLD271).
The inhibition of `CS(C)(=O)=Nc1ccc(-c2ccc(-c3nc4cc(O[C@@H]5CO[C@H]6[C@@H]5OC[C@H]6O)[nH]c4cc3F)cc2)cc1` is reported as 9% (FGFR2 (Homo sapiens, UniProt P21802, N549H); enzyme activity, inhibitor; 10 µM).
`COC(=O)[C@@H](NC(=O)c1nn(Cc2ccc(F)cc2)c2cc(OCCCCNC(=N)N)ccc12)C(C)(C)C` gave a maximal efficacy of 114% (Cannabinoid receptor 1, with Gi2 (CNR1, Homo sapiens, UniProt P21554); GTP turnover, agonist, refers to: Gi2 Gα subtype).
For `CCCCCCCCCC(O)CC(=O)N[C@H]1CCOC1=O` (stereo partly drawn), the Emax was 86.3% (sdiA).
For `Cc1cc(O)cc(C)c1C[C@H](N)C(=O)N[C@H](CCCNC(=N)N)C(=O)N[C@@H](Cc1ccccc1)C(=O)N[C@@H](CCCCN)C(=O)NCCCCCCNC(=O)[C@H](Cc1ccccc1)NC(=O)[C@H](CC1CCCCC1)NC[C@@H]1Cc2ccccc2CN1C(=O)[C@@H](N)Cc1ccc(O)cc1`, the selectivity ratio was 5.31 (Oprm1; binding; rat brain membranes; together with: [3H]DAMGO; reference: Ki mu over Ki delta).
With `C=CC(=O)NC[C@H](NC(=O)[C@H](CC1CCCCC1)NC(=O)[C@H](CCC(N)=O)NC(C)=O)C(=O)N[C@@H](CC(C)C)C(=O)N[C@@H](Cc1ccccc1)C(=O)O` the ΔG was -9.04 kcal/mol (Beta sliding clamp (Escherichia coli, UniProt P0A988); binding, isothermal titration calorimetry; 37 °C).
`OC[C@H]1CNCCN1C[C@@H]1CCCN1C[C@@H](Cc1ccc2ccccc2c1)N1CCN(CCC23CC4CC(CC(C4)C2)C3)[C@H](Cc2ccc(O)cc2)C1` has a remaining binding of 101 ± 4.2% (Oprm1; radioligand binding; rat brain membranes; 500 nM, pH 7.5, 25 °C, together with: 0.87 nM [3H]DAMGO).
`COc1cc2c(cc1S(=O)(=O)F)C(=O)NCCC2` has a remaining activity of 91% and 94.4% and 92.9% (Uncharacterized hydrolase SAUSA300_2518; enzyme activity, inhibitor, fluorogenic substrate; 0.5 µM).
For `COCC1CCCCN1C(=O)n1cc(C(O)(c2ccccc2)c2ccccc2)nn1` (stereo not drawn), “SILAC activity ratio” read 1.31 (Dipeptidyl peptidase 2 (Dpp7, Mus musculus, UniProt Q9ET22); probe labelling, inhibitor, competitive ABPP-SILAC, refers to: Dpp7; mouse T cells; concentration not given, 4 h, protein level; reference: treated over DMSO cells, lower = stronger inhibition).
The agonist activity of `O=C(Cc1ccc(Br)cc1)N[C@H]1CCOC1=O` is reported as 2% (lasR; reporter gene, agonist; Escherichia coli JLD271; 10 µM, pSC11 and pJN105L plasmids; reference: OdDHL at same concentration).
`CC(C)[C@@H]1NC(=O)[C@H](CCC(=O)O)NC(=O)CNC(=O)[C@H]([C@@H](C)O)NC(=O)[C@H](CCC(=O)O)NC(=O)[C@H](CCC(=O)O)NC(=O)[C@H](CC(=O)O)NC(=O)[C@H](C(C)C)NC(=O)[C@H]([C@@H](C)O)NC(=O)CNC(=O)[C@H](CC(=O)O)NC(=O)[C@H](CC(N)=O)NC(=O)[C@H](Cc2ccc(O)cc2)NC1=O` has a fluorescence polarization of 0.434 a.u. and 0.617 a.u. (KEAP1 (Homo sapiens, UniProt Q14145); Keap1-Nrf2 binding, inhibitor, competitive FP; 0.0977 µM, 30 min, together with: Nrf2 peptide probe; lower = stronger inhibition).
